Measurements gathered from unrelated publications.
Protocols differ between the studies behind these lines. ± marks the error that the study gave.
HDAC6 ZnF-UBD domain: Protein deacetylase HDAC6, ZnF-UBD domain (HDAC6, Homo sapiens, UniProt Q9UBN7)
STAT1 SH2 domain: Signal transducer and activator of transcription 1-alpha/beta, SH2 domain (STAT1, Homo sapiens, UniProt P42224)

O=C(O)CCCN1CC=C(c2ccccc2)CC1
Kd (HDAC6 ZnF-UBD domain): > 1000 µM

CC[C@H](C)[C@H](NC(=O)[C@H](CC(=O)O)NC(=O)[C@H](C)NC(=O)[C@H](Cc1ccc(OP(=O)(O)O)cc1)NC(=O)[C@H](CCCCN)NC(=O)[C@@H](NC(=O)[C@H](CC(=O)O)NC(=O)CNC(=O)[C@H](CCCCN)NC(=O)[C@H](CCSC)NC(=O)[C@H](CC(=O)O)NC(=O)[C@H](CC(C)C)NC(=O)[C@H](CCSC)NC(=O)c1ccc2c(c1)C(=O)OC21c2ccc(N(C)C)cc2Oc2cc(N(C)C)ccc21)C(C)C)C(=O)N[C@@H](CCC(=O)O)C(=O)N[C@@H](CO)C(=O)N[C@@H](CO)C(=O)N[C@@H](CC(N)=O)C(=O)N[C@@H](CC(=O)O)C(=O)O
Kd (STAT1 SH2 domain; binding): 1.56 µM

CN1C2CCCC1CC(NC(=O)c1nn(C)c3ccccc13)C2 (centres unmarked)
Kd (Soluble acetylcholine receptor (Aplysia californica, UniProt Q8WSF8, K160T/Q74R/S111E/V159L/W164A); homologous radioligand competition): > 10 µM

CC[C@H](C)[C@H](NC(=O)[C@H](Cc1c[nH]c2ccccc12)NC(=O)[C@H](C)NC(=O)[C@H](C)NC(=O)[C@H](Cc1ccc(O)cc1)NC(=O)[C@@H](N)CO)C(=O)N[C@@H](CC(=O)O)C(=O)N[C@@H](CO)C(=O)N[C@H](C(=O)N[C@@H](CC(C)C)C(=O)N[C@@H](C)C(=O)O)C(C)C
Kd (Serine protease HTRA1, PDZ domain (Homo sapiens, UniProt Q92743); isothermal titration calorimetry; isolated PDZ domain; pH 8.0): 4.1 µM

CC(C)C[C@H](NC(=O)[C@@H](N)CC(=O)O)C(=O)N[C@@H](CC(=O)O)C(=O)N[C@@H](COP(=O)(O)O)C(=O)N[C@@H](CC(=O)O)C(=O)N[C@@H](CC(=O)O)C(=O)N[C@@H](CCC(=O)O)C(=O)N[C@@H](Cc1ccc(O)cc1)C(=O)O
Kd (PIH1 domain-containing protein 1, residues 51-180 (PIH1D1, Homo sapiens, UniProt Q9NWS0, K57A); ITC; 20 °C, mutant protein): > 112 µM

CSCC[C@H](NC(=O)CNC(=O)[C@H](Cc1ccccc1)NC(=O)[C@H](CC(=O)O)NC(=O)CNC(=O)c1ccc2c(c1)C(=O)OC21c2ccc(N(C)C)cc2Oc2cc(N(C)C)ccc21)C(=O)N[C@@H](CO)C(=O)N[C@@H](CCCNC(=N)N)C(=O)N[C@@H](CC(=O)O)C(=O)N[C@H](C(=O)N[C@@H](Cc1ccc(OP(=O)(O)O)cc1)C(=O)N[C@@H](CO)C(=O)N[C@H](C(=O)N[C@@H](CC(=O)O)C(=O)N[C@@H](Cc1ccc(O)cc1)C(=O)N[C@@H](Cc1ccc(O)cc1)C(=O)N[C@@H](CCCNC(=N)N)C(=O)N[C@H](C(=O)N[C@@H](CC(=O)O)C(=O)O)C(C)C)[C@@H](C)O)C(C)C
Kd (SH2 domain-containing protein 3A, SH2 domain (SH2D3A, Homo sapiens, UniProt Q9BRG2); binding): 1.7 µM

C[C@H]1[C@H](NC(=O)/C(=N\OC(C)(C)C(=O)O)c2csc(N)n2)C(=O)N1S(=O)(=O)O
Kd (beta-lactamase CMY-6 (Klebsiella pneumoniae); binding, surface plasmon resonance): 64.8 µM

CC[C@H](C)[C@H](NC(=O)[C@H](CCC(N)=O)NC(=O)[C@@H](NC(=O)[C@@H]1CCCN1C(=O)[C@@H](NC(=O)[C@H](CO)NC(=O)[C@H](Cc1ccccc1)NC(=O)[C@@H]1CCCN1C(=O)[C@H](CCC(N)=O)NC(=O)[C@@H](N)CCSC)[C@@H](C)CC)C(C)C)C(=O)N[C@H](C(=O)N[C@@H](CC(C)C)C(=O)N[C@@H](CCC(N)=O)C(=O)NCC(=O)N[C@@H](CO)C(=O)N[C@@H](CCCNC(=N)N)C(=O)N[C@@H](CCCNC(=N)N)C(=O)N[C@@H](CCCNC(=N)N)C(=O)N[C@@H](CCC(N)=O)C(=O)NCC(=O)N[C@@H](CCCNC(=N)N)C(N)=O)[C@@H](C)O
Kd (Kcnma1 (Mus musculus, UniProt Q08460); ion current, blocker, inside-out patch clamp; Xenopus oocytes; range over 1 µM, pH 7.0, 22–24 °C, at 0 mV, with: 10 µM cytosolic Ca2+): 8 µM

N=C(N)NC(N)=O
Kd (Gdx-Clo, Clostridiales oral taxon 876; tryptophan fluorescence titration, ITC; pH-independent fit): 70 µM

N[C@H](Cc1ccccc1)C(=O)O
Kd (PAL1 (Petroselinum crispum, UniProt P24481, Y110F); ITC): 29.2 µM

O=C(O)CNC(=O)c1cccnc1
Kd (HDAC6 ZnF-UBD domain): > 1000 µM

CC[C@H](C)[C@H](NC(=O)[C@H](Cc1ccc(O)cc1)NC(=O)[C@H](CCC(=O)O)NC(=O)[C@H](Cc1c[nH]cn1)NC(=O)CNC(=O)[C@H](CC(=O)O)NC(=O)[C@H](CO)NC(=O)[C@H](CO)NC(=O)[C@@H](NC(=O)c1ccc2c(c1)C(=O)OC21c2ccc(N(C)C)cc2Oc2cc(N(C)C)ccc21)C(C)C)C(=O)N[C@@H](Cc1ccc(OP(=O)(O)O)cc1)C(=O)N[C@H](C(=O)N[C@@H](CC(=O)O)C(=O)N1CCC[C@H]1C(=O)N[C@@H](CCSC)C(=O)N[C@@H](CCC(N)=O)C(=O)N[C@@H](CC(C)C)C(=O)N1CCC[C@H]1C(=O)N[C@@H](CC(=O)O)C(=O)O)C(C)C
Kd (Ras GTPase-activating protein 1, SH2 domains (RASA1, Homo sapiens, UniProt P20936); binding): 0.244 µM

O=C1c2ccccc2C(=O)c2ccccc21
Kd (Reaction center protein M chain, QA site (pufM, Cereibacter sphaeroides, UniProt P0C0Y9); QA site binding; LDAO detergent solution; pH 7.8, 298 K, with: 1 µM reaction centres): 0.2 µM

CC[C@H](C)[C@@H]1NC(=O)[C@H](Cc2ccccc2)NC(=O)[C@H](Cc2ccc(O)cc2)NC(=O)[C@@H]2CCCN2C(=O)[C@H](Cc2ccccc2)NC(=O)[C@H]([C@@H](C)CC)NC(=O)[C@@H]2CCCN2C(=O)[C@H](CC(C)C)NC(=O)[C@H]([C@@H](C)CC)NC(=O)[C@H](CC(C)C)NC(=O)[C@@H](NC(=O)[C@H](CCSC)NC(C)=O)CSSC[C@@H](C(=O)NCC(=O)N[C@@H](CO)C(=O)NCC(=O)N[C@@H](CO)C(=O)N[C@@H](CC(=O)O)C(=O)N[C@@H](Cc2ccc(O)cc2)C(=O)N[C@@H](CCCCN)C(=O)N[C@@H](CC(=O)O)C(=O)N[C@@H](CC(=O)O)C(=O)N[C@@H](CC(=O)O)C(=O)N[C@@H](CC(=O)O)C(=O)N[C@@H](CCCCN)C(N)=O)NC1=O
Kd (Gastric inhibitory polypeptide receptor, extracellular domain (GIPR, Homo sapiens, UniProt P48546); binding, biolayer interferometry; crude peptide, single concentration): 0.039 µM

CC[C@H](C)[C@H](NC(=O)[C@H](Cc1ccc(OP(=O)(O)O)cc1)NC(=O)[C@H](CCC(=O)O)NC(=O)[C@H](Cc1c[nH]cn1)NC(=O)CNC(=O)[C@H](CC(=O)O)NC(=O)[C@H](CO)NC(=O)[C@H](CO)NC(=O)[C@@H](NC(=O)[C@H](CO)NC(=O)[C@H](CCC(=O)O)NC(=O)c1ccc2c(c1)C(=O)OC21c2ccc(N(C)C)cc2Oc2cc(N(C)C)ccc21)C(C)C)C(=O)N[C@@H](Cc1ccc(O)cc1)C(=O)N[C@H](C(=O)N[C@@H](CC(=O)O)C(=O)N1CCC[C@H]1C(=O)N[C@@H](CCSC)C(=O)N[C@@H](CCC(N)=O)C(=O)N[C@@H](CC(=O)O)C(=O)O)C(C)C
Kd (STAT1 SH2 domain; binding): 1.43 µM

CC1=C(CO)C(=O)O[C@@H]([C@@H](C)[C@H]2CC[C@H]3[C@@H]4C[C@H]5O[C@]56[C@@H](O)C=CC(=O)[C@]6(C)[C@H]4CC[C@]23C)C1
Kd (Importin subunit beta-1 (KPNB1, Homo sapiens, UniProt Q14974); microscale thermophoresis): 0.0139 µM

CSCC[C@H](NC(=O)[C@H](CC(=O)O)NC(=O)c1ccc2c(c1)C(=O)OC21c2ccc(N(C)C)cc2Oc2cc(N(C)C)ccc21)C(=O)N[C@@H](CO)C(=O)N[C@@H](CCCCN)C(=O)N[C@@H](CC(=O)O)C(=O)N[C@@H](CCC(=O)O)C(=O)N[C@@H](CO)C(=O)N[C@H](C(=O)N[C@@H](CC(=O)O)C(=O)N[C@@H](Cc1ccc(OP(=O)(O)O)cc1)C(=O)N[C@H](C(=O)N1CCC[C@H]1C(=O)N[C@@H](CCSC)C(=O)N[C@@H](CC(C)C)C(=O)N[C@@H](CC(=O)O)C(=O)N[C@@H](CCSC)C(=O)N[C@@H](CCCCN)C(=O)N[C@@H](CC(=O)O)C(=O)O)C(C)C)C(C)C
Kd (STAT1 SH2 domain; binding): 0.433 µM

N[C@@H](Cc1c[nH]c2ccccc12)C(=O)O
Kd (Transcription attenuation protein MtrB, Δ71 truncation (mtrB, Geobacillus stearothermophilus, UniProt Q9X6J6); circular dichroism titration; pH 8, 2 µM TRAP rings): 4 ± 0.4 µM

CC[C@H](C)[C@H](NC(=O)[C@H](Cc1ccc(OP(=O)(O)O)cc1)NC(=O)[C@H](CCC(=O)O)NC(=O)[C@@H]1CCCN1C(=O)[C@@H](NC(=O)[C@@H]1CCCN1C(=O)[C@H](CC(C)C)NC(=O)[C@H](Cc1ccccc1)NC(=O)[C@@H](NC(=O)[C@H](CC(=O)O)NC(=O)[C@H](CC(=O)O)NC(=O)c1ccc2c(c1)C(=O)OC21c2ccc(N(C)C)cc2Oc2cc(N(C)C)ccc21)[C@@H](C)O)C(C)C)C(=O)N[C@@H](CC(N)=O)C(=O)N[C@@H](CCC(N)=O)C(=O)N[C@@H](CO)C(=O)N[C@H](C(=O)N1CCC[C@H]1C(=O)N[C@@H](CCCCN)C(=O)N[C@@H](CC(=O)O)C(=O)O)C(C)C
Kd (Tyrosine-protein kinase ABL1, SH2 domain (ABL1, Homo sapiens, UniProt P00519); binding): 0.916 µM

NC(=O)N/N=C/c1ccc([N+](=O)[O-])o1
Kd (Oxygen-insensitive NAD(P)H nitroreductase (nfsB, Escherichia coli K-12, UniProt P38489, K14Q); binding; Escherichia coli): 31 ± 1 µM

Repeated from above:
N[C@H](Cc1ccccc1)C(=O)O
Kd (PAL1 (Petroselinum crispum, UniProt P24481, Y110F); ITC): 29.2 µM

CC[C@H](C)[C@H](NC(=O)[C@H](CC(=O)O)NC(=O)[C@H](C)NC(=O)[C@H](Cc1ccc(OP(=O)(O)O)cc1)NC(=O)[C@H](CCCCN)NC(=O)[C@@H](NC(=O)[C@H](CC(=O)O)NC(=O)CNC(=O)[C@H](CCCCN)NC(=O)[C@H](CCSC)NC(=O)[C@H](CC(=O)O)NC(=O)[C@H](CC(C)C)NC(=O)[C@H](CCSC)NC(=O)c1ccc2c(c1)C(=O)OC21c2ccc(N(C)C)cc2Oc2cc(N(C)C)ccc21)C(C)C)C(=O)N[C@@H](CCC(=O)O)C(=O)N[C@@H](CO)C(=O)N[C@@H](CO)C(=O)N[C@@H](CC(N)=O)C(=O)N[C@@H](CC(=O)O)C(=O)O
Kd (STAT1 SH2 domain; binding): 1.56 µM
